Published values gathered from unrelated publications.
Numbered parts are unrelated; each lists some results of a single study. Values joined by “and” are separate records of one study, mostly repeats; a detail may differ.

Study 1 — cell line: Gaucher fibroblasts L444P/L444P; technique: 4-MUG hydrolysis, cell lysate; concentration: 1 µM; baseline: DMSO
Compound	GCase activity
Ic1ccc(Nc2nc(NCCN3CCCCC3)nc(N3CCOCC3)n2)cc1	107% and 116% and 112% and 119% and 109%
Ic1ccc(Nc2nc(NCCN3CCOCC3)nc(N3CC4CC3CO4)n2)cc1 (stereo not drawn)	96.5% and 103% and 93.3% and 109% and 99.5% and 97.8%
c1ccc(Nc2nc(NCCN3CCOCC3)nc(N3CCOCC3)n2)cc1	94.5% and 86.6% and 98.7% and 103% and 92.8% and 99.7%

Study 2 — cell line: MDA-MB-231; effect on: cell viability; technique: CellCounting-Lite; concentration: 74.07 nM; temperature: 37 °C; reading: higher = more viable cells
SMILES	luminescence signal
CCn1cnc2c(NCc3nc4cc(Cl)c(Cl)cc4[nH]3)nc(N3CCC(NC(C)=O)CC3)nc21	429000 a.u. and 493000 a.u. and 414000 a.u.
CCn1cnc2c(NCc3nc4cc(Cl)c(Cl)cc4[nH]3)nc(N3CCn4ncnc4C3)nc21	61100 a.u. and 31300 a.u. and 48400 a.u.
CCn1cnc2c(NCc3nc4cc(Cl)c(Cl)cc4[nH]3)nc(N3CCN(C(=O)CNC(C)=O)CC3)nc21	205000 a.u. and 232000 a.u. and 244000 a.u.
CC(=O)N1CCN(c2nc(NCc3nc4cc(Cl)c(Cl)cc4[nH]3)c3ncn(C)c3n2)CC1	301000 a.u. and 367000 a.u. and 228000 a.u.
Cn1cc(-n2cnc3c(NCc4nc5cc(Cl)c(Cl)cc5[nH]4)nc(N4CCNCC4)nc32)cn1	240000 a.u. and 186000 a.u. and 224000 a.u.
CCn1cnc2c(NCc3nc4cc(Cl)c(Cl)cc4[nH]3)nc(N3CCN(C(=O)c4ccccn4)CC3)nc21	24700 a.u. and 19100 a.u. and 18800 a.u.
CCn1cnc2c(NCc3nc4cc(Cl)c(Cl)cc4[nH]3)nc(N3CCN(C(=O)c4ccncc4)CC3)nc21	82600 a.u. and 77500 a.u. and 58500 a.u.
CCn1cnc2c(NCc3nc4cc(Cl)c(Cl)cc4[nH]3)nc(N3CCN(c4ccccn4)CC3)nc21	605000 a.u. and 580000 a.u. and 618000 a.u.
CCn1cnc2c(NCc3nc4cc(Cl)c(Cl)cc4[nH]3)nc(N3CCN(C(=O)c4ccccc4)CC3)nc21	138000 a.u. and 124000 a.u. and 150000 a.u.

Study 3 — cell line: U-87 MG; concentration: concentration not given; baseline: DMSO
SMILES: CCN1/C(=C/C=C2\CCCC(/C=C/C3=[N+](CC)c4ccccc4C3(C)C)=C2NCCCCCCCCN2CCC(Nc3nc4ccccc4n3Cc3ccc(F)cc3)CC2)C(C)(C)c2ccccc21
assay	log2 fold change
refers to: BCL3 mRNA	-0.841
refers to: GORAB mRNA	1.37
refers to: SLC9A5 mRNA	-1.42
refers to: NFKBIZ mRNA	2.31
refers to: AOX1 mRNA	-1.53
refers to: DDIT4 mRNA	1.42
refers to: PMEPA1 mRNA	1.02
refers to: LFNG mRNA	-2.76
refers to: KRT33B mRNA	3.77
refers to: FAM111B mRNA	-2.35
refers to: PRR5L mRNA	-1.25
refers to: PRKAB2 mRNA	0.857
refers to: WHRN mRNA	1.39
refers to: CDC20 mRNA	-2.32
refers to: NFKBIB mRNA	1.32
refers to: CCNO mRNA	1.44

Study 4
Structure (SMILES): NCc1ccc(Cn2cc(Cc3cc(N)nc4[nH]nnc34)cn2)cc1
Target: Myeloperoxidase (MPO, Homo sapiens, UniProt P05164)
UniProt P05164, sequence (whole entry, looked up): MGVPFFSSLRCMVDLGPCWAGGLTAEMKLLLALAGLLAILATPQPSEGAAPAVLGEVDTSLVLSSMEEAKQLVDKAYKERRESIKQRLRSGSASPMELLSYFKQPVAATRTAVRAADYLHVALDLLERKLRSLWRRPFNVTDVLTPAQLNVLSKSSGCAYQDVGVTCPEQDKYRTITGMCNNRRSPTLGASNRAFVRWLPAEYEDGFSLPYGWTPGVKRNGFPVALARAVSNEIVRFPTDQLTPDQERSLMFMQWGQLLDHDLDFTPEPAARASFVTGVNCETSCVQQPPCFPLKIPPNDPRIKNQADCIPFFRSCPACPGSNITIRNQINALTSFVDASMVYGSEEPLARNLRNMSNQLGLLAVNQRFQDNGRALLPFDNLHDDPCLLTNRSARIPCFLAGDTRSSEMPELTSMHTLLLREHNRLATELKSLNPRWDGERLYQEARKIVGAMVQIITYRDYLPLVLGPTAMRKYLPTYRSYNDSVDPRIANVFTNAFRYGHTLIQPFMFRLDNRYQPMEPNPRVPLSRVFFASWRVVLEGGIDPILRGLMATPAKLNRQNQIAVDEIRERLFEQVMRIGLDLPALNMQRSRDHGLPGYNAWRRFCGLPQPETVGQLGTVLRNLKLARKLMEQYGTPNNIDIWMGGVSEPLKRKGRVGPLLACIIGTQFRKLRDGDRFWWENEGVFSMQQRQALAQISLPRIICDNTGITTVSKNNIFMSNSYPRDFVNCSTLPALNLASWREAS
assay	setting	inhibition
enzyme activity, inhibitor, fluorescence	3.333 µM	99.8%
H2O2 consumption, Amplex Red	0.0005 µM	-7.6% and 7.02%
H2O2 consumption, Amplex Red	1.111 µM	98.6%

Single results of other studies — effect on: cell growth or viability; technique: ATP luminescence; time: 6 days
SMILES	cell line	setting	viability
Cc1ncsc1-c1ccc(C(CO)NC(=O)C2CC(O)CN2C(=O)C(NC(=O)c2ccc(COc3c(-c4c(C)c(F)cc5[nH]ncc45)c(C4CC4)cc4c(N5CC6CC5CN6)nc(OC5CCOCC5)nc34)cc2)C(C)C)cc1 (stereo not drawn)	ASPC1	0.1 µM	72.5% and 69.1% and 63% and 66.1% and 39.5% and 73.5%
Cc1ncsc1-c1ccc(C(CO)NC(=O)C2CC(O)CN2C(=O)C(C(C)C)n2cc(-c3ccc(COc4c(-c5c(C)c(F)cc6[nH]ncc56)c(C5CC5)cc5c(N6CC7CC6CN7)nc(OC6CCOCC6)nc45)cc3)nn2)cc1 (stereo not drawn)	GP5d	1 µM	29.5% and 36.7% and 34.2% and 29.6%
